Measurements from different studies.
Every numbered part comes from another study and shows a few of its results, in no order.
UniProt Q15139, sequence (whole entry, looked up): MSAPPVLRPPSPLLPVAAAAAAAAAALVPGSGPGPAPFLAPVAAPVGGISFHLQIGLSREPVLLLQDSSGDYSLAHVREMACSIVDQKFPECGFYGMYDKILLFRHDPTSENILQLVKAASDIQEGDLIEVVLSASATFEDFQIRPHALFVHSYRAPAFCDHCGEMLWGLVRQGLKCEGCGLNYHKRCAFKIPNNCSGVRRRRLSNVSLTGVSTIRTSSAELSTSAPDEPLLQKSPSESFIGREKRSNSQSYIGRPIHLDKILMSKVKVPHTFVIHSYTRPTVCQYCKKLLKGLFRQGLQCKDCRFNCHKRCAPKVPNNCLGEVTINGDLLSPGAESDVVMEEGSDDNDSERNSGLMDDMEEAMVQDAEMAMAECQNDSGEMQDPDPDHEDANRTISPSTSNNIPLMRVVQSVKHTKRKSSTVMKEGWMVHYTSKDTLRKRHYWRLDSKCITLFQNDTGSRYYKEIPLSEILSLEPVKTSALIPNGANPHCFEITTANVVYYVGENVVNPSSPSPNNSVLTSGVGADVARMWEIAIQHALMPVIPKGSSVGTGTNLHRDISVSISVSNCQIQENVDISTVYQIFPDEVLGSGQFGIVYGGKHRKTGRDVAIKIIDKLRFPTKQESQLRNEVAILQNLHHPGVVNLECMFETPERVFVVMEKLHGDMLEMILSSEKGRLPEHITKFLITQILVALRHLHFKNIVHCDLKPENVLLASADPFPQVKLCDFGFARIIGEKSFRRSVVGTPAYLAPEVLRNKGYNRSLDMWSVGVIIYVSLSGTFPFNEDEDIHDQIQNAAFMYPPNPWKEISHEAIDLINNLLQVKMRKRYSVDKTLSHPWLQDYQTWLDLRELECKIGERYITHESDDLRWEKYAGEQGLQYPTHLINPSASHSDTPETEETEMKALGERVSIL
UniProt O95747, sequence (whole entry, looked up): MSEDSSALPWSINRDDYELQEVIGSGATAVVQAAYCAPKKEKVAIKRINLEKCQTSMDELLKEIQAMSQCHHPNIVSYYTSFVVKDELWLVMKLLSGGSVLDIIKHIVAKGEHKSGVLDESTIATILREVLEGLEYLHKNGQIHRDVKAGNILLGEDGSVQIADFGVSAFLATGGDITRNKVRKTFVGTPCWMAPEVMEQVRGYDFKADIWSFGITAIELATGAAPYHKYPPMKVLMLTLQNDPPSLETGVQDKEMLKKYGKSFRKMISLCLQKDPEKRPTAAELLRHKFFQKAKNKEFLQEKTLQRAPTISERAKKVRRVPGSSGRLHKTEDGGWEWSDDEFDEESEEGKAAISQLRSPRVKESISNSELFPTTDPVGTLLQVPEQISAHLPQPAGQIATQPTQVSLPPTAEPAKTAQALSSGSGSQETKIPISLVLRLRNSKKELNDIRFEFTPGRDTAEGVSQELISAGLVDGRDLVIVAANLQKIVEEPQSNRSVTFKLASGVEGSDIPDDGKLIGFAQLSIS
UniProt Q9UF33, sequence (whole entry, looked up): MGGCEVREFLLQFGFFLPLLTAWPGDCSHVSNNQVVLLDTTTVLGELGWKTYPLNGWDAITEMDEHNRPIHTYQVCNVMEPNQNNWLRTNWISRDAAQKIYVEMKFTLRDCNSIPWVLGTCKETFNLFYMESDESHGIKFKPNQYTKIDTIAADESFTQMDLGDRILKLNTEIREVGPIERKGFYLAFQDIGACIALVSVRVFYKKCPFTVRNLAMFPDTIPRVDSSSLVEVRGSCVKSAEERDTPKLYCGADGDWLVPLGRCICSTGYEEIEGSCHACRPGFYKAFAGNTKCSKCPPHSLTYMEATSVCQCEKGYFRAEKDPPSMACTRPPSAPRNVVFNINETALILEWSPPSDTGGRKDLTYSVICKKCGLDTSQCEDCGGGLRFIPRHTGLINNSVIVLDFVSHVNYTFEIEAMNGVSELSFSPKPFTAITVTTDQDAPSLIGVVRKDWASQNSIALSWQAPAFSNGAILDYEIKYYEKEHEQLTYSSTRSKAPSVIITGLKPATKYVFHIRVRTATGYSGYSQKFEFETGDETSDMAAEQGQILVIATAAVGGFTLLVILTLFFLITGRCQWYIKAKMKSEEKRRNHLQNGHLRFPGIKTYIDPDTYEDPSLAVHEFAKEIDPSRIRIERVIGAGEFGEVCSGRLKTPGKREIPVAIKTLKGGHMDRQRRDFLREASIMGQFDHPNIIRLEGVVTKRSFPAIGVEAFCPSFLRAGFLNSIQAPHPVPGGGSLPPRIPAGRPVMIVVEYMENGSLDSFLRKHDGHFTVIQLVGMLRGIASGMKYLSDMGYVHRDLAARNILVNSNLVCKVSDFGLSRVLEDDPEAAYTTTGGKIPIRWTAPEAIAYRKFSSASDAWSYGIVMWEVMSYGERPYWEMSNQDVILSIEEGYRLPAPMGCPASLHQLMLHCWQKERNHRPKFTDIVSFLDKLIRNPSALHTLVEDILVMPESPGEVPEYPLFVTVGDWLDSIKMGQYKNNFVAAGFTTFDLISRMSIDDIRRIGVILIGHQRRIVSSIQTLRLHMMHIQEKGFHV
UniProt Q8N5S9, sequence (whole entry, looked up): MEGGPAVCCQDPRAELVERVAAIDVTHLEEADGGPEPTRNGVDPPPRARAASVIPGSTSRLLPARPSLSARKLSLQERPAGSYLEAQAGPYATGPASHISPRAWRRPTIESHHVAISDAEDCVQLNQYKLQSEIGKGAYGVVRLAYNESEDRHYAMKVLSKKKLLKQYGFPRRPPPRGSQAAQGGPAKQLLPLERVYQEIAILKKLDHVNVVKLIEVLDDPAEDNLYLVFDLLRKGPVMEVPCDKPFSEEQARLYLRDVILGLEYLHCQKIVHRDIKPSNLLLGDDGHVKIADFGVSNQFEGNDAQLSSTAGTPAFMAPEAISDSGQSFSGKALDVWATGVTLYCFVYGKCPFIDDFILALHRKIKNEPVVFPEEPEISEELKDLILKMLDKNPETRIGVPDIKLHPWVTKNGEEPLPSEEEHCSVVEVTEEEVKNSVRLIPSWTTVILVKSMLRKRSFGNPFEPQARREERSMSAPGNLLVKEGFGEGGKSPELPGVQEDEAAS

Block 1
Target: Myosin light chain kinase, smooth muscle (MYLK, Homo sapiens, UniProt Q15746)
UniProt Q15746, sequence (whole entry, looked up): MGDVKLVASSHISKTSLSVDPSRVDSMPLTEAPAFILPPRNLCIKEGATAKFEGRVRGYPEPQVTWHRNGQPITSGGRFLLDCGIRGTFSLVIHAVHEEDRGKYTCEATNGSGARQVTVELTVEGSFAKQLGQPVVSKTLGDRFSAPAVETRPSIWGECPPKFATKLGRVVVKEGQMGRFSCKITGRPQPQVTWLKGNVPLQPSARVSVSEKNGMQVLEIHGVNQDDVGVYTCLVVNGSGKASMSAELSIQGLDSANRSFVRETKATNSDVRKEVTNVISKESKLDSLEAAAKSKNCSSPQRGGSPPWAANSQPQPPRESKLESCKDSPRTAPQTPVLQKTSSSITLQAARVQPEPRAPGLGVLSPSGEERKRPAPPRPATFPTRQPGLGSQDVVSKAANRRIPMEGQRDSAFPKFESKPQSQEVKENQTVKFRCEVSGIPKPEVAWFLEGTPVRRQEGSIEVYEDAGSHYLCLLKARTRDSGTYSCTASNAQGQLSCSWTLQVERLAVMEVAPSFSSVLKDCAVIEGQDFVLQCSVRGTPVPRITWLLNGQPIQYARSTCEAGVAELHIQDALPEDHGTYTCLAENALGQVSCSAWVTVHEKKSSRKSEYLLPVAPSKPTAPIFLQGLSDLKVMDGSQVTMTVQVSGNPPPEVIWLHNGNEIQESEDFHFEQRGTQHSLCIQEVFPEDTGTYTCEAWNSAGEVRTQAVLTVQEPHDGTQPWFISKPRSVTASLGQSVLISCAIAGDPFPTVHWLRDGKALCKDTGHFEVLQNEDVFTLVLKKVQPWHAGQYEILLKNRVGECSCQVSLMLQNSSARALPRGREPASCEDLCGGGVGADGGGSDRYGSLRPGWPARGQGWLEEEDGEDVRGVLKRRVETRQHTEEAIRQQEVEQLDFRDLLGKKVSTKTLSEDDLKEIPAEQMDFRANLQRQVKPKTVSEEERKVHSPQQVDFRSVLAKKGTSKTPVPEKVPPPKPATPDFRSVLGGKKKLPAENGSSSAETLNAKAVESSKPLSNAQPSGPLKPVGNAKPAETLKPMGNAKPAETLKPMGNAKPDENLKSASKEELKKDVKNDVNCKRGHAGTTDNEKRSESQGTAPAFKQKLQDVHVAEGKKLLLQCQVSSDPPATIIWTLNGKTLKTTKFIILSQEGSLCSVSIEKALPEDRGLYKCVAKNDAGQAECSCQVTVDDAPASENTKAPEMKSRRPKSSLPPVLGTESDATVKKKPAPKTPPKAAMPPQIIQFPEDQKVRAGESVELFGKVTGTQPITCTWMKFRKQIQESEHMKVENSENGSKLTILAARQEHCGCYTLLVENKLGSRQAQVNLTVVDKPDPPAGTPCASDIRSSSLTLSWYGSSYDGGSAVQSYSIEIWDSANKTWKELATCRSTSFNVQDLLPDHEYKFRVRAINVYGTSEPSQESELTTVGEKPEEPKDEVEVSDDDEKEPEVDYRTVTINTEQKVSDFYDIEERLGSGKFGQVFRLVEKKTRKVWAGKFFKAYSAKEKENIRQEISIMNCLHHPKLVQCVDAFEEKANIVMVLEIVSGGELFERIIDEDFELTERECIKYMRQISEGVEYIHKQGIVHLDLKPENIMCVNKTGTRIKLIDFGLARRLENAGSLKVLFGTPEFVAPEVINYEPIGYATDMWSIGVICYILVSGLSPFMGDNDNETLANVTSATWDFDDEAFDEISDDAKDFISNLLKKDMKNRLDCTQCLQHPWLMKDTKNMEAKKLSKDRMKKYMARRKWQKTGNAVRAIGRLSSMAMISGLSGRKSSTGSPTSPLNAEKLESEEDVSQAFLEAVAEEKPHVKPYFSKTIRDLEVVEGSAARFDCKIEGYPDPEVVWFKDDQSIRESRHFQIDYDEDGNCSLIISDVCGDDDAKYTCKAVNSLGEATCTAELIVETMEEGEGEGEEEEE
Observed: enzyme activity
Mode: inhibitor
Concentration: 0.5 µM
Relative to: control
For `CCOc1nc(NC(=O)Cc2cc(OC)ccc2OC)cc(N)c1C#N`, the remaining activity was 96.5%.
`c1ccc(-c2[nH]ncc2-c2ccnc3ccccc23)nc1` gave a remaining activity of 105%.
For `O=C(NC(NC(=S)Nc1ccc(F)c([N+](=O)[O-])c1)C(Cl)(Cl)Cl)C(c1ccccc1)c1ccccc1` (centres unmarked), the remaining activity was 99.6%.
With `C[C@@H]1CCN(C(=O)CC#N)C[C@@H]1N(C)c1ncnc2[nH]ccc12` the remaining activity was 89.9%.
`COc1cc2c(cc1OC)-c1[nH]nc(Nc3cccc(F)c3)c1C2` has a remaining activity of 102%.
The remaining activity of `CCN(CC)CCNC(=O)c1c(C)[nH]c(/C=C2\C(=O)Nc3ccc(F)cc32)c1C` is reported as 25.6%.
With `c1ccc(-c2cnc(Nc3ccc(OCCN4CCCC4)cc3)s2)cc1` the remaining activity was 96.9%.
For `O=C(Nc1cccc(Nc2nccc(Nc3cccc(C(F)(F)F)c3)n2)c1)C1CC1`, the remaining activity was 90%.
With `Ic1cccc(CSc2nnc(-c3ccncc3)o2)c1` the remaining activity was 99.1%.
With `N#C/C(=C\c1ccc(O)c(O)c1)C(=O)NCc1ccccc1` the remaining activity was 94.5%.
`CCN(CC)CCNC(=O)c1c(C)[nH]c(/C=C2\C(=O)Nc3ccc(Cl)cc32)c1C` has a remaining activity of 17.6%.
`Nc1cccc(-c2cc3c(Oc4cccc(O)c4)ncnc3[nH]2)c1` has a remaining activity of 81.7%.

Block 2
Species: human
Medium: microsomes or S9
Concentration: 2 µM
Time: 0.5 h
For `CC(c1cnccn1)N1CCN(S(C)(=O)=O)c2ccccc2C1` (centres unmarked), the remaining compound was 1.02%.
For `COc1cc(=O)n2c(c1C(=O)Nc1ccc(C(F)(F)F)cc1)CCCC2`, the remaining compound was 54.9%.
For `CCOC(=O)CNC(=O)N1Cc2c(sc3c2CCCC3)-n2cccc2C1c1ccc(C(C)C)cc1` (centres unmarked), the remaining compound was 0.204%.
`O=C(Nc1cccc(F)c1)C1CC(=O)N(Cc2ccccn2)c2nc3ccccc3n21` (centres unmarked) has a remaining compound of 51.6%.
The remaining compound of `CNC(=O)/C(=C/OC)n1c(-c2ccc(F)cc2F)noc1=O` is reported as 83.6%.
The remaining compound of `Cc1ccc(C)c(CNc2cc(-n3ccnc3)ncn2)c1` is reported as 43.5%.
With `CCn1cc(C(=O)NCc2ccc3c(c2)OCO3)c(=O)c2cc(F)c(N3CCN(C)CC3)cc21` the remaining compound was 44.6%.
`Cc1cnc(NC2CC(C)OC(C)C2)nc1NC1CC(C)OC(C)C1` (centres unmarked) has a remaining compound of greater than 100%.
With `CC(C)C(C)(NC(=O)c1ccccc1C#Cc1ccccc1)C(N)=O` (centres unmarked) the remaining compound was 80%.

Block 3
Cell line: Huh-7
Concentration: 10 µM
Time: 24 h
With `CNS(=O)(=O)Cc1ccc2[nH]cc(CCN(C)C)c2c1` the viability was 101%.
The viability of `Cc1cccc(C)c1NC(=O)C1CCCCN1C` (centres unmarked) is reported as 99.9%.
For `COc1ccc(C(=O)c2ccccc2)c(O)c1`, the viability was 97.1%.
With `Oc1ccc(OCc2ccccc2)cc1` the viability was 74.9%.
`CC1(C)S[C@@H]2[C@H](NC(=O)[C@H](C(=O)O)c3ccsc3)C(=O)N2[C@H]1C(=O)O` has a viability of 99%.
`O=C(c1ccc(OCCN2CCCCC2)cc1)c1c(-c2ccc(O)cc2)sc2cc(O)ccc12` gave a viability of 100%.
`Cn1c([N+](=O)[O-])cnc1COC(N)=O` gave a viability of 98.2%.
The viability of `CC(=O)Nc1ccc(S(=O)(=O)Nc2ccc([N+](=O)[O-])cc2)cc1` is reported as 97%.

Block 4
Structure (SMILES): CN(C)C(=O)Cn1cc(-c2nc([C@@](C)(c3ccc(-c4cnc(N)nc4)cc3)C3CC3)no2)cn1
Observed: cell-free assay
Technique: competition with immobilised ligand
Concentration: 1 µM
For OXSR1 (Homo sapiens, UniProt O95747): remaining binding read 86%.
It gave 87% for remaining binding (PAK3 (Homo sapiens, UniProt O75914)).
The remaining binding was 62% (MAP2K5 (Homo sapiens, UniProt Q13163)).
For MAPK13 (Homo sapiens, UniProt O15264): remaining binding read 93%.
For SIK3 (Homo sapiens, UniProt Q9Y2K2): remaining binding read 70%.
For EPHA6 (Homo sapiens, UniProt Q9UF33): remaining binding read 100%.
For EPHB4 (Homo sapiens, UniProt P54760): remaining binding read 100%.
PIM2 (Homo sapiens, UniProt Q9P1W9) — remaining binding: 100%.
It gave 100% for remaining binding (PAK6 (Homo sapiens, UniProt Q9NQU5)).
It gave 86% for remaining binding (ULK3 (Homo sapiens, UniProt Q6PHR2)).
ITK (Homo sapiens, UniProt Q08881) — remaining binding: 99%.
NUAK2 (Homo sapiens, UniProt Q9H093) — remaining binding: 83%.
PRKD1 (Homo sapiens, UniProt Q15139) — remaining binding: 100%.
The remaining binding was 94% (Cyclin-dependent kinase 4, with cyclin D1 (CDK4, Homo sapiens, UniProt P11802)).
For IRAK4 (Homo sapiens, UniProt Q9NWZ3): remaining binding read 85%.
It gave 68% for remaining binding (TSSK3 (Homo sapiens, UniProt Q96PN8)).
For STK25 (Homo sapiens, UniProt O00506): remaining binding read 100%.
The remaining binding was 100% (CAMKK1 (Homo sapiens, UniProt Q8N5S9)).

Repeated from above (block 2):
The remaining compound of `CNC(=O)/C(=C/OC)n1c(-c2ccc(F)cc2F)noc1=O` is reported as 83.6%.
With `CCn1cc(C(=O)NCc2ccc3c(c2)OCO3)c(=O)c2cc(F)c(N3CCN(C)CC3)cc21` the remaining compound was 44.6%.
With `CC(C)C(C)(NC(=O)c1ccccc1C#Cc1ccccc1)C(N)=O` (centres unmarked) the remaining compound was 80%.
For `CCOC(=O)CNC(=O)N1Cc2c(sc3c2CCCC3)-n2cccc2C1c1ccc(C(C)C)cc1` (centres unmarked), the remaining compound was 0.204%.
